Published values pooled from the literature.
Each numbered part is a random draw from the data of one study; scales do not carry over between parts. Positions count from the first letter of the parent shown.

Block 1
Target: CCNA2, cyclin fold, Cln2 fusion (human)
Technique: yeast growth competition, sequencing
Sample: yeast
Notes: strong parent motif
Reference: not given
Direction: higher = stronger binding
Parent: viral docking peptide; YKVKRRLVFGADD; partner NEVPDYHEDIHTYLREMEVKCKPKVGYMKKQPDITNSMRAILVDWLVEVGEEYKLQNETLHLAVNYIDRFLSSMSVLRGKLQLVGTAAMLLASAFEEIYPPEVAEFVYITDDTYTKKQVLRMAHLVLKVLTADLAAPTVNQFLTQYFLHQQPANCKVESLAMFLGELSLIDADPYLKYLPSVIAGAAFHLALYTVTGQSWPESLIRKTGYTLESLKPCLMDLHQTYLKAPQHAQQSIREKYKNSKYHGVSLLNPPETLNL
Substitution | normalised enrichment score
YKDKRRLVFGADD [V3D] | 0.498
YKVKRRLNFGADD [V8N] | 6.65
YKVKRRLVFGAKD [D12K] | 5.95
YKVKRTLVFGADD [R6T] | 5.28
YKVKRRLVFGIDD [A11I] | 6.11
YKVKRVLVFGADD [R6V] | 5.16
YKVKRRLKFGADD [V8K] | 6.6
YKVKRRLVFGDDD [A11D] | 6.42
YKVKRRLVFDADD [G10D] | 6.42
YKVKRRCVFGADD [L7C] | 0.502
YKVKRCLVFGADD [R6C] | 5.62
YKVKRRLVFGFDD [A11F] | 6.28
YKVKRQLVFGADD [R6Q] | 5.79
YKVKRRLVFHADD [G10H] | 5.91
YKVKRRQVFGADD [L7Q] | 0.0709
YKVKRRMVFGADD [L7M] | 1.98
YKVKRRLVFGPDD [A11P] | 6.67

Block 2
Target: UDP-N-acetylglucosamine--peptide N-acetylglucosaminyltransferase 110 kDa subunit (OGT, Homo sapiens, UniProt O15294)
UniProt O15294, sequence (whole entry, looked up): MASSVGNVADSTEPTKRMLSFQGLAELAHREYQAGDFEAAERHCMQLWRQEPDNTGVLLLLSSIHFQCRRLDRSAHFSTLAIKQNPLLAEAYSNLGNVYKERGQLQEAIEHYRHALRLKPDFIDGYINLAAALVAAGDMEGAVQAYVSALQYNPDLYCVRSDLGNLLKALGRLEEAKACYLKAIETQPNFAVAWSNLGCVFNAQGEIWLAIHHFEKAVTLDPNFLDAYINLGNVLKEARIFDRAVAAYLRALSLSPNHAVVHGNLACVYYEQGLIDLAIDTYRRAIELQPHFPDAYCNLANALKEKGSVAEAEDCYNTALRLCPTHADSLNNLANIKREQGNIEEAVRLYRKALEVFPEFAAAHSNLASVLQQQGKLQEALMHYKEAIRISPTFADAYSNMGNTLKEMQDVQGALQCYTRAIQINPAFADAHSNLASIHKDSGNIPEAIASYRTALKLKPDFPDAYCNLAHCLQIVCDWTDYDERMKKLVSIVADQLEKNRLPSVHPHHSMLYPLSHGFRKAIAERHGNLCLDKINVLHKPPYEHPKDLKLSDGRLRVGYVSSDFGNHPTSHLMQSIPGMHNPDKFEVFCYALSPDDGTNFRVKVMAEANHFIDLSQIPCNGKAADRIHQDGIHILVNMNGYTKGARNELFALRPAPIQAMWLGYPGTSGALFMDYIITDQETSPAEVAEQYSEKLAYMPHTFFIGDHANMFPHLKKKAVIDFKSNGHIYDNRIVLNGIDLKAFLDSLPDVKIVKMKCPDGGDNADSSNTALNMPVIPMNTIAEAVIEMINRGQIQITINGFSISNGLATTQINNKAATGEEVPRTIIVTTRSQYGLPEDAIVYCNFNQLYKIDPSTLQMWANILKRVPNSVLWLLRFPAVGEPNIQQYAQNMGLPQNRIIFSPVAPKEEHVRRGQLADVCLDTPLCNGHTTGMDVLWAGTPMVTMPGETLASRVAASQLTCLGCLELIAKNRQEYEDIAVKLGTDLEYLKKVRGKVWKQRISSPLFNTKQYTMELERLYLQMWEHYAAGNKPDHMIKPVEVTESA
Read-out: binding
Technique: phage display NGS
Form: peptide
Reference: input library
Sequence | minimum log2 enrichment ratio
TYHAAHVRTWSQHHA | 2.64
WNAPRHHDTHWHVYT | 2.31
TFRTHHFHHDLSQF | 3.29
HPTWPVEHHHDKIYS | 2.82
SSYMPMYQLTVKPGQ | 4.24
HSLMHKGHKHHVGDI | 2.03
HAGTIQPVYQISYVK | 2.48
QGDYMPFYQLRSKIT | 2.63

Block 3
Target: inorganic phosphate, free oxyanion
Technique: microfluidic competitive inhibition
Sample: in vitro, cell-free expressed
Concentration: not given
Notes: derived from inhibition constants, unchanged parent 615000 nM
Direction: lower = stronger binding
Parent: PafA, mature enzyme, eGFP fusion (Elizabethkingia meningoseptica, UniProt Q9KJX5); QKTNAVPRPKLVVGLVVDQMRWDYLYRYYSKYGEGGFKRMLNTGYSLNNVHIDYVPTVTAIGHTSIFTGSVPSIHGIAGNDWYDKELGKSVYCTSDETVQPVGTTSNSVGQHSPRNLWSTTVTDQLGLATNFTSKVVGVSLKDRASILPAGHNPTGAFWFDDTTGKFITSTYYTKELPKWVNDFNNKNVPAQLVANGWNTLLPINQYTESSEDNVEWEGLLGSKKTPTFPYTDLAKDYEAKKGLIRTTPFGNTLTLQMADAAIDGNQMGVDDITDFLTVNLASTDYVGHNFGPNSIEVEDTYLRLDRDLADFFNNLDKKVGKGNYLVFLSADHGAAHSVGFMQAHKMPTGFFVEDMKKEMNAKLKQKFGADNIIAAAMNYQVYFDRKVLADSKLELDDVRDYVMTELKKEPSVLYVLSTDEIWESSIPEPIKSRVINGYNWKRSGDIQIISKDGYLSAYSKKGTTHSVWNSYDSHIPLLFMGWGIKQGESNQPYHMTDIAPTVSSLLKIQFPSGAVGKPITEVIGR
Substitution | phosphate dissociation constant [µM]
P227G | 555
L507G | 525
W423G | 661
Y32V | 665
K363G | 522
W217G | 175
S412G | 707

Block 4
Target: Histone acetyltransferase KAT6A, winged helix 1, GST fusion (KAT6A, Homo sapiens, UniProt Q92794, residues 1-85)
Technique: protein binding microarray
Form: double-stranded DNA, one strand shown
Sample: in vitro
Concentration: not given
Notes: 8-mer, flanks averaged, mean of 2 arrays, mostly near background
Reference: not given
Direction: higher = stronger binding
Target sequence (chain): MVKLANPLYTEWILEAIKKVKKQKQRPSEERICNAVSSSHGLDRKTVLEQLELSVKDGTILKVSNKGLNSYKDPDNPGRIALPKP
Sequence | E-score
CACTAAGG | -0.0638
CAATTATG | 0.209
CGCGCTGC | 0.416
ATCACCCG | 0.267
TAATGTGA | -0.082
AATCGGCT | 0.135
GTAGCGGA | 0.184
AATGGTCC | 0.0343

Some of these lines once more (block 2):
Sequence | minimum log2 enrichment ratio
TYHAAHVRTWSQHHA | 2.64
WNAPRHHDTHWHVYT | 2.31
TFRTHHFHHDLSQF | 3.29
HPTWPVEHHHDKIYS | 2.82
SSYMPMYQLTVKPGQ | 4.24
HSLMHKGHKHHVGDI | 2.03
